Results collected from several papers.
Compare with care: the assays were run in different laboratories. “And” joins repeats or separate records; there may be more than shown. ± marks the error that the study gave.
Matrix protein 2 S31N: Matrix protein 2 (Influenza A virus, UniProt P0DOF5, S31N)
Matrix protein 2: Matrix protein 2 (Influenza A virus, UniProt P0DOF5)

For `Clc1ncc(CNC23CC4CC(CC(C4)C2)C3)s1`, the inhibition was 42% (Matrix protein 2 S31N; proton channel activity, inhibitor; Influenzavirus A, S31N mutant; 100 µM).
`c1nc(N2CCCCC2)ncc1CNC12CC3CC(CC(C3)C1)C2` gave an inhibition of 12 ± 0.8% (Matrix protein 2; channel activity, inhibitor; 100 µM).
`CC(C)(C)[C@H](NC(=O)NC1(CS(=O)(=O)C(C)(C)C)CCCCC1)C(=O)N1C[C@H]2[C@@H]([C@H]1C(=O)N[C@H](C#N)C[C@@H]1CCNC1=O)C2(C)C` gave a melting temperature of 67.1 ± 0.1 °C (Replicase polyprotein 1ab, main protease H41A (rep, Severe acute respiratory syndrome coronavirus 2, UniProt P0DTD1, H3304A); thermal shift; SARS-CoV-2).
`O=C[C@H](C[C@@H]1CCNC1=O)NC(=O)[C@H](CC1CCCCC1)NC(=O)c1cc2ccccc2[nH]1` — result for “thermal shift (ΔTm)”: 17.8 °C (Replicase polyprotein 1a, main protease (Severe acute respiratory syndrome coronavirus 2, UniProt P0DTC1, P3395H); binding; SARS-CoV-2; concentration not given).
The EC50 of `CC(C)C(=O)OC[C@H]1O[C@@](C#N)(n2ccc(N)nc2=O)[C@H](O)[C@@H]1O` is reported as 1200 ± 400 nM (SARS-CoV-2 Omicron; viral replication; Calu-3).
For `c1nc(N2CCCCCC2)cnc1CNC12CC3CC(CC(C3)C1)C2`, the inhibition was 84 ± 1.6% (Matrix protein 2 S31N; channel activity, inhibitor; 100 µM).
With `O=c1cc(-c2ccc(O)cc2)oc2c([C@@H]3OC[C@H](O)[C@H](O)[C@H]3O)c(O)c([C@@H]3O[C@H](CO)[C@@H](O)[C@H](O)[C@H]3O)c(O)c12` the inhibition was 32% (Replicase polyprotein 1ab, main protease G143A (rep, Severe acute respiratory syndrome coronavirus 2, UniProt P0DTD1, G3406A); 3CL protease activity, inhibitor; concentration not given, 3CLpro G143A mutant).
With `c1nc(N2CCCCCC2)ncc1CNC12CC3CC(CC(C3)C1)C2` the inhibition was 83.8 ± 2.8% (Matrix protein 2 S31N; channel activity, inhibitor; 100 µM).
With `CC(C)(C)c1ncc(CNC23CC4CC(CC(C4)C2)C3)s1` the inhibition was 38% (Matrix protein 2 S31N; proton channel activity, inhibitor; Influenzavirus A, S31N mutant; 100 µM).
`COc1ccc(CNc2ccc(C34CC5CC(CC(C5)C3)C4)cc2)c(O)c1` gave a kon of < 64 M⁻¹ s⁻¹ (Matrix protein 2 S31N; binding).
Under inhibition, `Nc1ncc(CNC23CC4CC(CC(C4)C2)C3)s1` is recorded as “inactive” (Matrix protein 2 S31N; channel activity, inhibitor; concentration not given, S31N mutant).
`OC12CC3CC(C1)CC(NCc1cnc(N4CCCCC4)nc1)(C3)C2` has an inhibition of 2 ± 2% (Matrix protein 2; channel activity, inhibitor; 100 µM).
The inhibition of `Cc1nc(CNC23CC4CC(CC(C4)C2)C3)cs1` is reported as 36% (Matrix protein 2 S31N; proton channel activity, inhibitor; Influenzavirus A, S31N mutant; 100 µM).
`O=C(NC1CCN(c2ncnc3[nH]cnc23)CC1)c1cccc(NS(=O)(=O)c2ccc(C(F)(F)F)cc2)c1` gave a ΔTm of 2.5 °C (Replicase polyprotein 1ab, nsp14 (rep, Severe acute respiratory syndrome coronavirus 2, UniProt P0DTD1); thermal shift; 15.63 µM).
`c1nc(CNC23CC4CC(CC(C4)C2)C3)no1` gave an inhibition of 52% (Matrix protein 2 S31N; channel activity, inhibitor; 100 µM, S31N mutant).
`CC(C)CC(C(=O)N1CC2(CC1C#N)C(=O)Nc1ccccc12)N(C)C(=O)c1cc2c(F)cc(F)c(F)c2[nH]1` (stereo not shown) has a remaining activity of -0.734% and 0.013% and -0.244% and -0.894% (Replicase polyprotein 1ab, main protease K90R/A193V (rep, Severe acute respiratory syndrome coronavirus 2, UniProt P0DTD1, A3456V/K3353R); 3.16 µM).

Repeated from above:
Under inhibition, `Nc1ncc(CNC23CC4CC(CC(C4)C2)C3)s1` is recorded as “inactive” (Matrix protein 2 S31N; channel activity, inhibitor; concentration not given, S31N mutant).
`OC12CC3CC(C1)CC(NCc1cnc(N4CCCCC4)nc1)(C3)C2` has an inhibition of 2 ± 2% (Matrix protein 2; channel activity, inhibitor; 100 µM).
The inhibition of `Cc1nc(CNC23CC4CC(CC(C4)C2)C3)cs1` is reported as 36% (Matrix protein 2 S31N; proton channel activity, inhibitor; Influenzavirus A, S31N mutant; 100 µM).
